{"data": "Measured values pooled from the literature", "note": "Each numbered part is a random draw from the data of one study; scales do not carry over between parts. Positions count from the first letter of the parent shown."}
{"data": "Block 1", "target": "Histone acetyltransferase KAT6A, winged helix 2, GST fusion (KAT6A, Homo sapiens, UniProt Q92794, residues 85-181)", "method": "protein binding microarray", "form": "double-stranded DNA, one strand shown", "medium": "in vitro", "tested at": "not given", "setting": "8-mer, flanks averaged, mean of 2 arrays, mostly near background", "reference": "not given", "reading": "higher = stronger binding", "Construct (chain)": "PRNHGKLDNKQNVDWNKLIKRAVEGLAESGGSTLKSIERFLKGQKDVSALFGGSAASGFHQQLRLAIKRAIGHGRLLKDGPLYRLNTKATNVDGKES"}
{"Strand": "CGTATGGC", "E-score": 0.0961}
{"Strand": "GAGCTTGA", "E-score": -0.0839}
{"Strand": "AACAACAC", "E-score": 0.141}
{"Strand": "GGGCAAGA", "E-score": 0.148}
{"Strand": "CCTTCACA", "E-score": 0.00877}
{"Strand": "GAGCATGC", "E-score": -0.004}
{"Strand": "GTGGTATA", "E-score": -0.139}
{"Strand": "AGACACCT", "E-score": -0.16}
{"data": "Block 2", "target": "RING finger protein unkempt homolog, zinc fingers 1-6, SBP tag (UNK, Homo sapiens, UniProt Q9C0B0, residues 30-357)", "method": "RNA Bind-n-Seq", "form": "RNA", "medium": "in vitro", "tested at": "100 nM", "setting": "RNA with constant flanks, vertebrate orthologous sites, ends assumed", "reference": "input RNA pool", "reading": "higher = stronger binding", "shared flanks, not repeated": "GGGAGUUCUACAGUCCGACGAUC … CAACAGAGGAUUGAGCAUCA", "UniProt Q9C0B0, sequence (30-357, looked up)": "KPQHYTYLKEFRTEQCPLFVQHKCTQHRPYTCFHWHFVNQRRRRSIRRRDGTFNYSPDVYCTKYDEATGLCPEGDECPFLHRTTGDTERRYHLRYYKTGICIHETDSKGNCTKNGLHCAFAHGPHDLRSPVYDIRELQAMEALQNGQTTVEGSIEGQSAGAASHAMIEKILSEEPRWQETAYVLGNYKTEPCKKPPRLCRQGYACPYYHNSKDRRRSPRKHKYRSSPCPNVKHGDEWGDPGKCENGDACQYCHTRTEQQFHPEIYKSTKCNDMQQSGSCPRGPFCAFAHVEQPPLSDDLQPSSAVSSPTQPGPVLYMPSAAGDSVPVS"}
{"Strand": "GUUGGGUCAUGACCCCUAUAGGUUAGGGCAUGAUGCUUACCGGUUAGGACAGGACCCCUAUAGGUUAGGCCAUGAUCCCUACAGACUAACUCCUGAUCCCUAUAGGAUGUCACCCAGACC", "bound/input enrichment [ratio]": 0.525}
{"Strand": "AAUAGUUUUAAGCUUGUUUGCACAGCUUUUUUUAUCCAUGAGAAAUGGAAUCCAUUUUGCCUUAGGUCUUUUUAAAUAAUGUAUUCUUAUGUUUGGGCUGGCUCUAUGCUUGAAAACCAG", "bound/input enrichment [ratio]": 1.57}
{"Strand": "UCUGCCGUCCCCGCGAGCCGCGCGGCGCGGUCCCGUCUUCAGCGUCCUCUCUUUCCUGUCCUCGGGGUGGGGGUGGGGUGUGGCUCACGGCGCAGCGGCGCGAGCUCGUGUGGUUGGUUC", "bound/input enrichment [ratio]": 0.387}
{"Strand": "AAGUAUCCCAGUUUACCGUGUUGAGUUGGCAUUGUACAGAAAUUAACAGCCAUAUUGGUCUAGAAAUGUUGAACUUAAUUUUUUCCCAUUUGUACAGGGGUAACGCACUGUAUUAAAUAU", "bound/input enrichment [ratio]": 0.517}
{"Strand": "CUGGGAAAUACUCUGGGGAGUGGCUGGACACUUAGCAUUGUUUGAUUUAUGACCUUGACAGUAGAUAGGCUUGUGGGGGUUUUGUUUUUGUUUUUUAAUUUAAUGAUAUUAAAACGUAAU", "bound/input enrichment [ratio]": 1.01}
{"Strand": "CCGCACUAGAGGGUAGCAUAUGUUUCACAAAGAAGAGUCUUUAUAAUUUUGUUUGUCAUAUAGUAUUUUGGAAUUUGUACAAUGAGGAUGUUUAGAAGCCAUAUCAAUGGCUUUUUUAAA", "bound/input enrichment [ratio]": 1.16}
{"Strand": "UUGGGAGCAGCUCUCCAAAUAGAAAUAGUAGUAAAAAAACCAAACAAAAUGAUAUUUGUGUAGAAAAAACAGAAGUAAUCAUGAAGUAAUGUGCAGUGUCCAGUCCUAAAGAUUUGGGGU", "bound/input enrichment [ratio]": 1.97}
{"Strand": "GUCCCUCAGUGACAGCGUGCCCUCCGUGGCCGAGUCCCACUCGAGUCACUUUUCAGAGUUCAGUUGUUCUGACCUGGAAAGCAUGAAGACUUCCUGUAGCCACGGGUCCAGUGACUACCA", "bound/input enrichment [ratio]": 0.146}
{"data": "Block 3", "target": "CCND3, cyclin fold, Cln2 fusion (human)", "method": "yeast growth competition, sequencing", "medium": "yeast", "setting": "weak parent motif", "reference": "not given", "reading": "higher = stronger binding", "parent": "RBL1 docking peptide (human); GSAKRRLFGEDPP; partner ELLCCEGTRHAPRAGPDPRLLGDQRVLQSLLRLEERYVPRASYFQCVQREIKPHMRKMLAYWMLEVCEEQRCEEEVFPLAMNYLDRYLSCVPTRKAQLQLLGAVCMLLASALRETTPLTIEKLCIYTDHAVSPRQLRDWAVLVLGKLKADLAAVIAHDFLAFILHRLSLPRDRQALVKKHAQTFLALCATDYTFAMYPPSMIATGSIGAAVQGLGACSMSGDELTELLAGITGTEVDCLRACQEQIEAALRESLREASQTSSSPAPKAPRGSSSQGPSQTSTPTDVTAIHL"}
{"Substitution": "S2I", "normalised enrichment score": 0.138}
{"Substitution": "R6H", "normalised enrichment score": 0.132}
{"Substitution": "F8M", "normalised enrichment score": 0.105}
{"Substitution": "K4P", "normalised enrichment score": 0.0551}
{"Substitution": "L7P", "normalised enrichment score": 0.138}
{"Substitution": "R5H", "normalised enrichment score": 0.206}
{"Substitution": "K4N", "normalised enrichment score": 0.153}
{"data": "Further values, each from its own experiment"}
{"Substance": "PhoQ, residues 284 288 289 292 302 303 SSYNSA", "target": "PhoP, residues 12 14 15 18 19 VQALL (Escherichia coli, UniProt P23836)", "test": "Sort-seq, measured: YFP reporter", "test system": "E. coli", "setting": "PhoQ-PhoP variant library, with: 10 µM Mg2+", "how to read": "reference: high Mg2+ state, higher = stronger signaling", "measurement": "fold induction", "result": 16.2}
{"note": "Some of these lines once more (block 1):"}
{"Strand": "CGTATGGC", "E-score": 0.0961}
{"Strand": "GTGGTATA", "E-score": -0.139}
